Published values pooled from the literature.
Lines come from different studies, so protocols differ.
Target: Mitogen-activated protein kinase kinase kinase kinase 5 (MAP4K5, Homo sapiens, UniProt Q9Y4K4)

CS(=O)(=O)Nc1cccc(-c2csc3cnc(Nc4ccc(N5CCN(CCCCCOc6cccc7c6C(=O)N(C6CCC(=O)NC6=O)C7=O)CC5)cc4)nc23)c1 (stereo not shown)
inhibition (probe labelling, inhibitor, KiNativ chemoproteomics; MOLT-4; 1 µM): -9.93%

CNC1C[S+]2CC[S+]3CC[S+](C1)[Ru-4]321([N]=C=S)[n]2c3ccc(OC)cc3c3c4c(c5cc(F)c[n+]1c5c32)C(=O)NC4=O (stereo not shown)
remaining binding (KinomeScan; 0.1 µM; baseline: untreated): 100%

Cc1cccc(O[C@H]2CCC[C@@H](C(C)CNCc3ccncc3)C2)c1 (relative stereo)
inhibition (enzyme activity, inhibitor; 1 µM): -2%

CCN1CCN(Cc2ccc(C(=O)Nc3ccc(C)c(NCc4cnc5[nH]ccc5c4OC)c3)cc2C(F)(F)F)CC1
remaining binding (binding, competition with immobilised ligand; 1 µM): 2.4%

C=CC(=O)N1CCCC(n2c(=O)c3ncccc3n(Cc3ccc(Oc4ccccc4)cc3)c2=O)C1 (stereo not shown)
remaining binding (cell-free assay, competition with immobilised ligand; 1 µM): 72%

COc1cc(Nc2nccc(-c3cnn4nc(OC)ccc34)n2)cc(C(F)(F)F)c1
remaining binding (binding, competition with immobilised ligand; 1 µM): 92%

Cc1cnc2nc1Nc1cccc(c1)COC/C=C/COCc1cc(ccc1OCCN1CCOCC1)N2
remaining binding (binding; 0.1 µM): 100%

C=CC(=O)Nc1cccc(-c2cnc3[nH]cc(C(=O)NC(C)(C)C)c3n2)c1
inhibition (enzyme activity, inhibitor; 0.1 µM): 50%

C=CC(=O)N1Cc2nc(-c3cc(-c4cc(Cl)cnc4Cl)c(F)cc3F)n(-c3ccncn3)c2C1
inhibition (cell-free assay, inhibitor; 1 µM): 10.7%

Nc1ncc(-c2cc(-c3cnn(CC(F)(F)F)c3)ncc2F)nc1C(=O)NC1CNCC(F)C1 (stereo not shown)
remaining activity (enzyme activity; 1 µM; baseline: DMSO control): 84%

NC(=O)C[C@H]1CCc2sc3ncnc(O[C@H]4CC[C@H](N5CCOCC5)CC4)c3c21
inhibition (enzyme activity, inhibitor; 10 µM): 12%

CN1CC[C@@H](COc2cnc(C#N)cc2-c2ccn3nc(NC(=O)C4CC4)cc3c2)C1
inhibition (enzyme activity, inhibitor; 1 µM): 27%

Cc1ccc(-c2c(/C=C(\C#N)C(=O)NC(C)C)n(CCCO)c3ncnc(N)c23)cc1
remaining binding (cell-free assay, competition with immobilised ligand; 1 µM): 100%

A few entries again:
NC(=O)C[C@H]1CCc2sc3ncnc(O[C@H]4CC[C@H](N5CCOCC5)CC4)c3c21
inhibition (enzyme activity, inhibitor; 10 µM): 12%

C=CC(=O)N1Cc2nc(-c3cc(-c4cc(Cl)cnc4Cl)c(F)cc3F)n(-c3ccncn3)c2C1
inhibition (cell-free assay, inhibitor; 1 µM): 10.7%
